Results pooled from the literature.
Parts stem from different laboratories: compare values within a part only.

Block 1 — technique: universal PBM; molecule type: double-stranded DNA, one strand shown; medium: in vitro; tested at: 600 nM; direction: higher = stronger binding; quantity: E-score
Target: Sal-like protein 4, full length isoform A (SALL4, Homo sapiens, UniProt Q9UJQ4, residues 1-1053)
UniProt Q9UJQ4, sequence (whole entry, looked up): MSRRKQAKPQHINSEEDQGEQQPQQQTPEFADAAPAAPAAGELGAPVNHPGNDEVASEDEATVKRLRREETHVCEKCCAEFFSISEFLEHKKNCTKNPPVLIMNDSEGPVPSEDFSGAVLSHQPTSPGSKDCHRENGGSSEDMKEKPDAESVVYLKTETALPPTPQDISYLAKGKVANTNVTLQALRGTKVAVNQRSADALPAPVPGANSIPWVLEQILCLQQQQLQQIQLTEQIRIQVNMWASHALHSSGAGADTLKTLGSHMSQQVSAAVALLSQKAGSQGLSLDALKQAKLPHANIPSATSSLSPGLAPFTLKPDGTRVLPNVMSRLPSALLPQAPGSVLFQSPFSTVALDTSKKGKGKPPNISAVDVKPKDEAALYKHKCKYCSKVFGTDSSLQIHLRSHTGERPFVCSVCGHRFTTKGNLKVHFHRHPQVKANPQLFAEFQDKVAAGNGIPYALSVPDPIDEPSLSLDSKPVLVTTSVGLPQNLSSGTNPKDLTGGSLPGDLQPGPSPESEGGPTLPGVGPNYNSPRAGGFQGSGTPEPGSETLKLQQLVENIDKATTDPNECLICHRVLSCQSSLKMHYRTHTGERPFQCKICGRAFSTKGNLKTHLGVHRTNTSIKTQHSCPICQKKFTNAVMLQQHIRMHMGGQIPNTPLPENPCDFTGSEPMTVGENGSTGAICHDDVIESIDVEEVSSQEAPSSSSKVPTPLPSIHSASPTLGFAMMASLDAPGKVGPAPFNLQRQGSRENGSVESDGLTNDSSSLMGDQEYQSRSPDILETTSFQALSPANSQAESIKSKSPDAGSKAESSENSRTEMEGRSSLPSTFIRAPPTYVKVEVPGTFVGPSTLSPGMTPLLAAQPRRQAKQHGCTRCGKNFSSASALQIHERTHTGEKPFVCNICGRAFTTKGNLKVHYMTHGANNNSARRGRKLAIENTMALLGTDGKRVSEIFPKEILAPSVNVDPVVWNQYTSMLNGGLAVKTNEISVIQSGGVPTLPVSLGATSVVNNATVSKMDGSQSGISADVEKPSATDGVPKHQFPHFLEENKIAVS
Notes: 8-mer, flanks averaged, mean of replicates
ATGATAGC: 0.318
AGCGAGAC: -0.333
AGATTAAT: 0.32
AACAACGG: -0.0763
CGGGAGGC: -0.354
CCCTCCAG: -0.273

Block 2 — technique: RNA Bind-n-Seq; molecule type: RNA; medium: in vitro; tested at: not given; baseline: input RNA pool; direction: higher = stronger binding; quantity: bound/input enrichment
Target: RING finger protein unkempt homolog, zinc fingers 1-6, GST-SBP tag (UNK, Homo sapiens, UniProt Q9C0B0, residues 30-357)
UniProt Q9C0B0, sequence (30-357, looked up): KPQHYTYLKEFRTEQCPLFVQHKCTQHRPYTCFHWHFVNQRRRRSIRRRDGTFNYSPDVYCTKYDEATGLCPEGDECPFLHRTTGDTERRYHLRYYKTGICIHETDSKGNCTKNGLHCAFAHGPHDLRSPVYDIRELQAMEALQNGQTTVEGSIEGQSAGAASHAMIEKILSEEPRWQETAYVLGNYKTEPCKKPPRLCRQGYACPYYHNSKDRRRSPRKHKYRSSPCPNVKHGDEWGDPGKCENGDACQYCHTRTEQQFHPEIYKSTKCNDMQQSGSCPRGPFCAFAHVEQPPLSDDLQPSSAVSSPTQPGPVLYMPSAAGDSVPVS
Notes: RNA with constant flanks, human and mouse sites, ends assumed
Shared flanks, not repeated: GGGAGUUCUACAGUCCGACGAUC … CAACAGAGGAUUGAGCAUCA
UGGGCACUGUAUCAGAUAGAUUACUUUUUAAAUGUAGAUAAAAUUUCAAAAAUGAAUGGCUAGUUUACGUGAUAGAUUAGGCUCUUACUACAUAUGUGUGUGUAUAUAUAUGUAUUUGAU: 11.8 ratio
CGGAGCCCUGGUCAGCAUAGCCGCCCACGGUCUGUUCUCAGAUUCCUAAUCAUUCCAGAAGUAUUAAACGUCAUUGCUGCAAACCUCGGCAGGUGCCGUGUGAGGGGCUUAAUGACCACC: 0.16 ratio
CAGAUUUUGGCAGGAGUUAGAAUAAAUCCCGGGGCCUGGGCUUCUCUAUUCUUGGCCCUCCGUAGUCUCCCUCCGAGAGGAGGCCAGAGGGAGAGGAGGAUCUCAGCAGGCCUCUAGCCG: 2.73 ratio
CACAAGUUGGAAGAAGCCUUACUGUUUUCAGGCCAGUUCAUGGAUGCUUUGCAGGCUUUAGUUGACUGGUUGUACAAGGUGGAGCCACAGUUGGCUGAGGACCAGCCUGUACAUGGGGAC: 0.116 ratio
AGAUUAAGAUUCAAUCAUUUUGCUACAGAAUGUAGCUGGGAUCAUAUGUAUGUUUAUGAUGGAGAUUCAAUAUAUGCACCUUUAAUAGCUGUACUUAGUGGUUUGAUAGUCCCUGAAAUA: 0.561 ratio

Block 3 — technique: protein binding microarray; molecule type: double-stranded DNA, one strand shown; medium: in vitro; tested at: not given; baseline: not given; direction: higher = stronger binding; quantity: E-score
Target: Histone acetyltransferase KAT6A, winged helix 2, GST fusion (KAT6A, Homo sapiens, UniProt Q92794, residues 85-181)
Notes: 8-mer, flanks averaged, mean of 2 arrays, mostly near background
Target sequence (chain): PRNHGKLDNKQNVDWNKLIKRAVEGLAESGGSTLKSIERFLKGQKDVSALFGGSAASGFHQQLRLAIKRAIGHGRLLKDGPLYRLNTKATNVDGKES
CTGCAAAG: 0.14
AATCAGGG: -0.119
TACCACAA: 0.0463
CACTCCGG: 0.0516
AGACCTCA: -0.0117
AGCAATGG: 0.0442

Other studies, line by line
PhoQ, residues 284 288 289 292 302 303 SIHLQL
fold induction (PhoP, residues 12 14 15 18 19 HEGLL (Escherichia coli, UniProt P23836); Sort-seq, item: YFP reporter; E. coli; PhoQ-PhoP variant library, with: 10 µM Mg2+; baseline: high Mg2+ state, higher = stronger signaling): 10.8

Repeated from above (block 2):
UGGGCACUGUAUCAGAUAGAUUACUUUUUAAAUGUAGAUAAAAUUUCAAAAAUGAAUGGCUAGUUUACGUGAUAGAUUAGGCUCUUACUACAUAUGUGUGUGUAUAUAUAUGUAUUUGAU: 11.8 ratio
